Measurements pooled from the literature.
± marks the error that the study gave.

Structure (SMILES)	test	test system	setting	scale	endpoint	value
COc1ccc(OC)c(/C(=C\c2ccc(O)c(O)c2)C(=O)NCCc2ccc(O)cc2)c1		C57BL mice, pseudo-germ-free, brain	oral, 75 mg/kg of FLZ, 8 weeks	baseline: control mice	brain concentration	decreased
CNC(=O)c1ncn2c(=O)n(C)nnc12		CD-1 IGS mice, brain and serum	intravenous, 25 mg/kg, 5 min	baseline: temozolomide	brain to serum ratio	> 3 fold
N#Cc1nc(N2CCOCC2)nc(N(Cc2ccc(F)cc2)CC2CCCNC2)n1 (centres unmarked)		female CD-1 mice	intraperitoneal, 10 mg/kg, 7 h		brain concentration	12.4 ng/g
COc1cc2c(cc1OC)CC(=O)N(C[C@H]1CCCN(CCOc3ccc(F)cc3)C1)CC2		C57BL/6 mice, brain	intraperitoneal, 20 mg/kg, 15 min	baseline: compound over cilobradine	brain concentration ratio	> 1
Cc1cc2c(c(=O)o1)C=C1CCC(C(C)CNCc3ccc(O)cc3)CC1O2 (centres unmarked)	HPLC-MS	5xFAD mice	oral in drinking water, dose not given, two months		brain concentration	4.3 ± 0.89 µM
CC(C)CCN(Cc1ccc(F)cc1)c1nc(C#N)nc(N2CCOCC2)n1		female CD-1 mice	intraperitoneal, 10 mg/kg, 2 h		brain concentration	16.1 ng/g
CC12CC(O)C3CC1(OC1OC(CO)C(O)C(O)C1O)C3(COC(=O)c1ccccc1)C(=O)O2 (centres unmarked)		ICR mice	oral, 14 mg/kg, 2 h		brain level	not detected
C[C@H](Oc1cc(-c2cnn(C3CCN(CC[18F])CC3)c2)cnc1N)c1c(Cl)ccc(F)c1Cl	PET	healthy nude mice, brain			brain clearance time	≤ 30 min
COc1cc2c(cc1OC)CN(CCCCn1ccc3cc(OCC[18F])ccc31)C2		male ICR mice	intravenous, 120 min post-injection		brain uptake	1.58 ± 0.16 %ID/g
CC(C)C[C@H](NC(=O)[C@H](CCCNC(=N)N)NC(=O)CNC(=O)[C@@H](N)CC(C)C)C(=O)N[C@@H](CO)C(=O)N[C@@H](CCC(N)=O)C(=O)N[C@@H](CCC(=O)O)C(=O)N[C@@H](CC(C)C)C(=O)N[C@@H](Cc1c[nH]cn1)C(=O)N[C@@H](CCCNC(=N)N)C(=O)N[C@@H](CC(C)C)C(=O)N[C@@H](CCC(N)=O)C(=O)N[C@H](C(=O)N[C@@H](Cc1ccc(O)cc1)C(=O)N1CCC[C@H]1C(=O)N[C@@H](CCCNC(=N)N)C(=O)N[C@H](C(=O)N[C@@H](CC(N)=O)C(=O)N[C@H](C(=O)NCC(=O)N[C@@H](CO)C(=O)N[C@@H](CC(N)=O)C(=O)N[C@H](C(=O)N[C@@H](Cc1ccc(O)cc1)C(N)=O)[C@@H](C)O)[C@@H](C)O)[C@@H](C)O)[C@@H](C)O		wild-type mice, brain, ex vivo	ip, 0.1 mmol Cy5-labelled, 2 h	baseline: saline	brain fluorescence	2 fold
COc1ccc(OC)c(C(=Cc2ccc(O)c(OC)c2)C(=O)NCCc2ccc(O)cc2)c1		C57BL mice, pseudo-germ-free, brain	oral, 75 mg/kg, 8 weeks	baseline: control mice	brain concentration	decreased

For quick reference, copied from above:
Structure (SMILES)	test	test system	setting	scale	endpoint	value
CC12CC(O)C3CC1(OC1OC(CO)C(O)C(O)C1O)C3(COC(=O)c1ccccc1)C(=O)O2 (centres unmarked)		ICR mice	oral, 14 mg/kg, 2 h		brain level	not detected
